Measured values pooled from the literature.
Numbered parts are unrelated; each lists some results of a single study. Several values in a cell are separate wells, animals, samples, runs or records.
Chain of UniProt P00519 (whole entry, unmodified, looked up): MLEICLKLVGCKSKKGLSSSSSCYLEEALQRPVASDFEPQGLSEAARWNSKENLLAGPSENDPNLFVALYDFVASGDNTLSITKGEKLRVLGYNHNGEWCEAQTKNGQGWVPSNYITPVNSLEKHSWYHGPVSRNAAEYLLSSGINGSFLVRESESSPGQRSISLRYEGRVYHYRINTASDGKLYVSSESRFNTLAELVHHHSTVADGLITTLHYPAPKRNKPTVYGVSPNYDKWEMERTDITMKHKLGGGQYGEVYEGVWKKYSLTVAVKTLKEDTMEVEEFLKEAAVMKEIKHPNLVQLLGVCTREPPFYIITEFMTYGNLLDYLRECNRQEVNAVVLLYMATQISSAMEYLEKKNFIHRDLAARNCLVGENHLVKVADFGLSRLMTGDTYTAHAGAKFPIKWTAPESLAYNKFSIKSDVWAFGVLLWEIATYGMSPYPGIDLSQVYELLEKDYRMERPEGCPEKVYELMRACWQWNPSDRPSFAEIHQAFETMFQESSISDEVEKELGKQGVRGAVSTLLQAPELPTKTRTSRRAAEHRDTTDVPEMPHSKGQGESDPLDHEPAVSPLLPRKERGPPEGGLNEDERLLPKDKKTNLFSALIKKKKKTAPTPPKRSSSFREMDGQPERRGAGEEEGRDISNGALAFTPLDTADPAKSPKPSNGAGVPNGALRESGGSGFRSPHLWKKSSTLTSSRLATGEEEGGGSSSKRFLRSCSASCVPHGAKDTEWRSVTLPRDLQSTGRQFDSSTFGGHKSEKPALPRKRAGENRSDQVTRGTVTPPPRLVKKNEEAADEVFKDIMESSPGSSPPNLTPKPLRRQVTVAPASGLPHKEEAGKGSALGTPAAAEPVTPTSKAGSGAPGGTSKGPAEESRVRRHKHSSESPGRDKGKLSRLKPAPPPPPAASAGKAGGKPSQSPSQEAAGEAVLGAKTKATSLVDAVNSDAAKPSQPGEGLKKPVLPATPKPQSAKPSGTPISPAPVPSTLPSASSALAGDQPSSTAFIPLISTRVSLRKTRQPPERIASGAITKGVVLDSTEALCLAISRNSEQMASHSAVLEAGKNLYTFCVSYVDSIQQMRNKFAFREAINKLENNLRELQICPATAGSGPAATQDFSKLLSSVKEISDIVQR

Study 1 — method: trypan blue exclusion; time: 48 h; baseline: untreated; measurement: viability
SMILES: O=C(NC1CCNCC1)c1[nH]ncc1NC(=O)c1c(Cl)cccc1Cl
HH; 0.5 µM: 23.7%
HuT78; 0.0001 µM: 107%
HuT78; 0.5 µM: 41.2%
HH; 1 µM: 13.6%
HuT78; 0.1 µM: 102%
HH; 0.01 µM: 102%

Study 2 — host: human; sample: microsomes or S9; tested at: 2 µM; time: 0.5 h; measurement: remaining compound
CN(Cc1ccccc1)c1nc2ccccc2n1CC(O)COc1ccccc1 (centres unmarked): 0.694%
NCCO[C@H]1C[C@@H](O)C12CCN(CC(c1ccccc1)c1ccccc1)CC2: 61.7%
CC1=C2C(=NC3=C(C(=O)CCC3)C2c2ccc(C#N)cc2)N(c2nc(C)cc(C)n2)N1 (centres unmarked): 63.1%
Cc1nc(C)c(S(=O)(=O)N2C[C@H]3CCc4nnc(-c5ccncc5)n4[C@H]3C2)s1: 91.1%
Cc1cc(C)nc(N2N=C(c3ccccc3)CC2=O)n1: 79.2%
CC1(C)Oc2c(ccnc2Cl)[C@H](N(Cc2ncc[nH]2)c2ccc(Cl)cc2Cl)[C@H]1O: 2.48%
Clc1ccc(-c2nc3cnc4ccccc4c3s2)cc1: 35.4%
COc1ccc(CCN(Cc2nc(-c3ccccc3)no2)Cc2nc(-c3ccccc3)no2)cc1OC: 0.367%

Study 3 — cell line: mouse MPNST tumor cells; method: high-content nuclear imaging; item: cell number; tested at: 10 µM; time: 12 h; notes: mean of 2 replicates; baseline: plate mean; reading: higher = more cells; measurement: nuclei count
NC1CCN(c2nc3c(cc2F)c(=O)c(C(=O)O)cn3-c2ccc(F)cc2F)C1 (centres unmarked): -0.279 z-score
COc1cc2c(cc1NS(=O)(=O)c1ccc(Br)cc1C)n(C)c(=O)n2C: -0.973 z-score and -0.807 z-score
COc1ccc(CCc2nc3cc(-c4c(C)noc4C)ccc3n2C[C@H](C)N2CCOCC2)cc1Cl: 0.0867 z-score and 1.59 z-score
CC(C)c1nc(CN(C)C(=O)N[C@H](C(=O)N[C@@H](Cc2ccccc2)C[C@H](O)[C@H](Cc2ccccc2)NC(=O)OCc2cncs2)C(C)C)cs1: 1.15 z-score
Nc1ncnc2c1ncn2[C@@H]1O[C@H](CO)C[C@H]1O: 0.0953 z-score
NC(N)=NCCC[C@H](NC(=O)c1sccc1NS(=O)(=O)c1cccc2nsnc12)C(=O)O: 1.48 z-score
CN1C(C(=O)Nc2ccccn2)=C(O)c2sccc2S1(=O)=O: 0.224 z-score

Study 4 — observed: enzyme activity; action: inhibitor; tested at: 0.5 µM; baseline: control; measurement: remaining activity
Target: Serine/threonine-protein kinase MRCK alpha (CDC42BPA, Homo sapiens, UniProt Q5VT25)
Chain of UniProt Q5VT25 (whole entry, looked up): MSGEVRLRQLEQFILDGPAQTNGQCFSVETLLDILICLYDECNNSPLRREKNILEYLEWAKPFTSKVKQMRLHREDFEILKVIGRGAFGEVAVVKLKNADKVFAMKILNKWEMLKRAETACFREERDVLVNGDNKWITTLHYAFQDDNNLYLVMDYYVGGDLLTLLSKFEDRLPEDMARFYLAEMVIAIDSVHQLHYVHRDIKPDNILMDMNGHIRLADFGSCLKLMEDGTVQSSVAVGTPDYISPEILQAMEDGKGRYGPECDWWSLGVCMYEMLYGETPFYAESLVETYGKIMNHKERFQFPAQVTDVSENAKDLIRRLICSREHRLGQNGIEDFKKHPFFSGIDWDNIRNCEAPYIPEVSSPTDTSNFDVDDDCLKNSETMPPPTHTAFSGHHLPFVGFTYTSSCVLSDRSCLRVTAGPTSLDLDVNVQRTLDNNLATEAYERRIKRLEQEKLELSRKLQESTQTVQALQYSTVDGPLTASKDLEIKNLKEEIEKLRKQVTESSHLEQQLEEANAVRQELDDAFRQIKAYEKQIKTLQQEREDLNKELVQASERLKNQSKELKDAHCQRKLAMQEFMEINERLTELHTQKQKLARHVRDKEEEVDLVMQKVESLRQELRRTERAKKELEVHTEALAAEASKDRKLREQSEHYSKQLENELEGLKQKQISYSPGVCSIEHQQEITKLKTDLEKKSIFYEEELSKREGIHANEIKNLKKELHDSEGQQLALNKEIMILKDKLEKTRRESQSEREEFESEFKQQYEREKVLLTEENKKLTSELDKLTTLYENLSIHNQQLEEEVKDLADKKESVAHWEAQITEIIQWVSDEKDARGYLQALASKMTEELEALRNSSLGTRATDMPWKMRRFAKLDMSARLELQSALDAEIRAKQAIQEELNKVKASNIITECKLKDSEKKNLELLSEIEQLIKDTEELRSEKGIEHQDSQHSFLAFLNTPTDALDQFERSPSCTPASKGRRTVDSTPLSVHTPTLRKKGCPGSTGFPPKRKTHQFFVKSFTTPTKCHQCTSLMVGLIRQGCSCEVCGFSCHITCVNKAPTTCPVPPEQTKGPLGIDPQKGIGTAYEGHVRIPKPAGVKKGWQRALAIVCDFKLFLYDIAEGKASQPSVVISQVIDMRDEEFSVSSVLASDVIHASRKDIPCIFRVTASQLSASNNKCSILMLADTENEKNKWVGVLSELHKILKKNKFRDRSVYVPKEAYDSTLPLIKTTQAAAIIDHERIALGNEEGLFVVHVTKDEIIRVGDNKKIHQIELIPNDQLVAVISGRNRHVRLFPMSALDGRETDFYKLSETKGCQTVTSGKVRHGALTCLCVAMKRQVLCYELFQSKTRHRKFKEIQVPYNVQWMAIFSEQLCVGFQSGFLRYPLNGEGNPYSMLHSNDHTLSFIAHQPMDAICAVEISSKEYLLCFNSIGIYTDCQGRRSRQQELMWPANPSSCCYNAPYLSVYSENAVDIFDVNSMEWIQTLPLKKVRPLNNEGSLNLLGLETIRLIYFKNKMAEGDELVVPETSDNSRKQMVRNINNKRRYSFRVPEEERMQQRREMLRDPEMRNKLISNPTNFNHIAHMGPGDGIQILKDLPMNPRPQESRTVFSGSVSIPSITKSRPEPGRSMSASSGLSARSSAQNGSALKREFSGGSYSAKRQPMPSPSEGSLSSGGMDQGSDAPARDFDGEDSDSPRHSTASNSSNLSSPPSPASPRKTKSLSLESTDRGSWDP
O=S(=O)(c1cccc2cnccc12)N1CCCNCC1: 104%
Cc1ccc(Nc2nccc(N(C)c3ccc4c(C)n(C)nc4c3)n2)cc1S(N)(=O)=O: 85.4%
Cn1c2ccccc2c2c3c(c4c5ccccc5n(CCC#N)c4c21)CNC3=O: 89.9%
O=C(CCCc1ccc(-c2ccccc2F)cc1)Nc1ccc(O)cc1: 103%
Cc1cccc(-c2[nH]c(C(C)(C)C)nc2-c2ccc3c(c2)OCO3)n1: 89.6%
O=C(O)c1ccc2c3c1cccc3c(=O)n1c3ccccc3nc21: 96.1%
O=c1c2ccccc2[nH]c(=S)n1CCN1CCC(=C(c2ccc(F)cc2)c2ccc(F)cc2)CC1: 97.7%
O=C1NC(=O)C(c2cn(CCCn3ccnc3)c3ccccc23)=C1Nc1ccccc1: 95.2%
NCCNc1ncc(C(N)=O)c(Nc2cccc(C(F)(F)F)c2)n1: 98.9%
Cn1sc(=O)n(Cc2ccccc2)c1=O: 94%
Cc1nc(-c2ccccc2)c(-c2ccncc2)o1: 91.9%
CNC(=O)c1cc(Oc2ccc(NC(=O)Nc3ccc(Cl)c(C(F)(F)F)c3)cc2)ccn1: 85.2%
COc1ccc(CNC(=O)Nc2ncc([N+](=O)[O-])s2)cc1: 93.7%
O=C(Nc1cccc(Nc2cc(Nc3cccc(C(F)(F)F)c3)ncn2)c1)C1CC1: 77.7%
CC(C)[C@H](CO)Nc1nc(Nc2cc(N)cc(Cl)c2)c2ncn(C(C)C)c2n1: 99.4%
O=C1NC(=O)C(c2cn(CCCO)c3ncccc23)=C1c1cnccn1: 78.6%

Further values, each from its own experiment
CCC(=NO)C(C)=Cc1ccc(F)c(C)c1  remaining binding (Tyrosine-protein kinase ABL1 (ABL1, Homo sapiens, UniProt P00519, F317I); KINOMEscan; 1 µM, F317I mutant, nonphosphorylated; baseline: control): 100%
